{"data": "Published values gathered from unrelated publications", "note": "Each numbered part is a random draw from the data of one study; scales do not carry over between parts.", "chain of UniProt P35367 (whole entry, looked up)": "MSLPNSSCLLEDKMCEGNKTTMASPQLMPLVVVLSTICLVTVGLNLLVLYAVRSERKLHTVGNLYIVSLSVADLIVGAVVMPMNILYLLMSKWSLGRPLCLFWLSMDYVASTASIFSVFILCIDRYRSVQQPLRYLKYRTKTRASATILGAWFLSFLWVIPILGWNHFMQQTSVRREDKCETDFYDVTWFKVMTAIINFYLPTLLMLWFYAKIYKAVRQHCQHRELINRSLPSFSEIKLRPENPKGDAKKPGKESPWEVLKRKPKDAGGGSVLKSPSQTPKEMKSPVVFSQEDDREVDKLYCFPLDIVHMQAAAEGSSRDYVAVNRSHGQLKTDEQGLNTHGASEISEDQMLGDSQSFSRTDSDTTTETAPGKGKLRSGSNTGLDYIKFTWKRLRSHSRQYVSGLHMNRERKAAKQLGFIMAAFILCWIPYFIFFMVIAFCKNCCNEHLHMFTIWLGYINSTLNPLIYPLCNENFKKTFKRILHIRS", "chain of UniProt Q9P0L2 (whole entry, looked up)": "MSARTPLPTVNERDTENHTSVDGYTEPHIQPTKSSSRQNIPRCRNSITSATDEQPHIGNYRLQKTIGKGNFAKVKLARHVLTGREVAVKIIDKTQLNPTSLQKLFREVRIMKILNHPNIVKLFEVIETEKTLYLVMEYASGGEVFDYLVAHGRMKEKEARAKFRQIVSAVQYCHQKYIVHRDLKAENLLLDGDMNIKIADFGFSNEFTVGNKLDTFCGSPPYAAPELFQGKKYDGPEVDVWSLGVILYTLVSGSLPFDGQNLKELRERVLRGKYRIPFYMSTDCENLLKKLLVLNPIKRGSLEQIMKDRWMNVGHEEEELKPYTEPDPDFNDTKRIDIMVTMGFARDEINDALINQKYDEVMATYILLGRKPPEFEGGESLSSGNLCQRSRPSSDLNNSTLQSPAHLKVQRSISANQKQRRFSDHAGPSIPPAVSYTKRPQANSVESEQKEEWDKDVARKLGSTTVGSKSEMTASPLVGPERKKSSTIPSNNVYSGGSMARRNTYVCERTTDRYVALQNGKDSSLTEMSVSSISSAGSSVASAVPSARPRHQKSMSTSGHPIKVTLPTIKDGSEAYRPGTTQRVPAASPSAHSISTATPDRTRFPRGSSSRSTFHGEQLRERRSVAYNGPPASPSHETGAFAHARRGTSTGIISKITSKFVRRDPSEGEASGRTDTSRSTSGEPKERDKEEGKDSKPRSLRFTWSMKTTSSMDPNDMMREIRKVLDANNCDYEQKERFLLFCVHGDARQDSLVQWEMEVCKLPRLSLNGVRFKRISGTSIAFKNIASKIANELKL", "chain of UniProt Q9P286 (whole entry, looked up)": "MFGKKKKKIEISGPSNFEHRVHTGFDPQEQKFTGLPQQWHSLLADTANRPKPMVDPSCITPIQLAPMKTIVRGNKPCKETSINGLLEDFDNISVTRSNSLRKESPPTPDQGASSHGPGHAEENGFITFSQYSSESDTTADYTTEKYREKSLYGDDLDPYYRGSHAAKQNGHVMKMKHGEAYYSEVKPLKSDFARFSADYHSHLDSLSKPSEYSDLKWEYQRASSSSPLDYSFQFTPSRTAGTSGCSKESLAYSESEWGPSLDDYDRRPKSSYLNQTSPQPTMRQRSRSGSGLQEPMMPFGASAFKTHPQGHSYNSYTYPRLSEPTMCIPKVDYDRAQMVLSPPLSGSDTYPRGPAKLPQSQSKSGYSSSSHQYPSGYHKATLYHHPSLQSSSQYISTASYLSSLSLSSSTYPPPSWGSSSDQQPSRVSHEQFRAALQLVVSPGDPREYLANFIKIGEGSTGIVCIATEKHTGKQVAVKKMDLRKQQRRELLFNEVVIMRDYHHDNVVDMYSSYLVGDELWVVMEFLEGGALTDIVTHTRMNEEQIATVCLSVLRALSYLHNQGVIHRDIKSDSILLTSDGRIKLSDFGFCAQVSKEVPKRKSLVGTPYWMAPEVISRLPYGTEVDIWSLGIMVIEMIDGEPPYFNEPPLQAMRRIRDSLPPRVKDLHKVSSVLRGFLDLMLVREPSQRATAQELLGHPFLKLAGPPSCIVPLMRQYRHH", "chain of UniProt P07550 (whole entry, looked up)": "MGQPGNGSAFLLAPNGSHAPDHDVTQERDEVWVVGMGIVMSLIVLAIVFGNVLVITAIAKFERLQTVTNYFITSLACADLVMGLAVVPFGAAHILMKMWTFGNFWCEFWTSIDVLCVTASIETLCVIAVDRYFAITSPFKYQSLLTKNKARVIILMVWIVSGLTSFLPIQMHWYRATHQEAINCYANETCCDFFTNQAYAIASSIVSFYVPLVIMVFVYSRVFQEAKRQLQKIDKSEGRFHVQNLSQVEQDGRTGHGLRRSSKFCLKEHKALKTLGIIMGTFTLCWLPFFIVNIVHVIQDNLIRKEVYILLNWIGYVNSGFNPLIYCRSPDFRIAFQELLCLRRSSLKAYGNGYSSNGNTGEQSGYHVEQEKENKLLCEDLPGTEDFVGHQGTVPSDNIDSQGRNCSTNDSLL", "chain of UniProt Q13153 (whole entry, looked up)": "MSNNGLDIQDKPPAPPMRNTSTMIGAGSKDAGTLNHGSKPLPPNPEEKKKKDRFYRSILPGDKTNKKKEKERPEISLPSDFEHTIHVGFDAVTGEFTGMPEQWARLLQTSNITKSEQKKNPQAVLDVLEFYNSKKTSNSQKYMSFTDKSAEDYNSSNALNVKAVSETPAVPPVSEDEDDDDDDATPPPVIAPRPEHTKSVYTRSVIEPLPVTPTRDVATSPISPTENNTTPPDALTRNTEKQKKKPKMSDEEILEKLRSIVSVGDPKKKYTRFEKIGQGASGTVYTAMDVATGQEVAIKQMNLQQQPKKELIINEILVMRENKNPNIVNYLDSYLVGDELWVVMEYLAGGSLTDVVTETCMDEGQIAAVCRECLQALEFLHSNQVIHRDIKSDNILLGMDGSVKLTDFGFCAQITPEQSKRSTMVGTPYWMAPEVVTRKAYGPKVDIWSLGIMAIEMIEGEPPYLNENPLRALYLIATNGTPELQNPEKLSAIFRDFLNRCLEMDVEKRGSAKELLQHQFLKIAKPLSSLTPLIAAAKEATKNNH", "chain of UniProt P25116 (whole entry, unmodified, looked up)": "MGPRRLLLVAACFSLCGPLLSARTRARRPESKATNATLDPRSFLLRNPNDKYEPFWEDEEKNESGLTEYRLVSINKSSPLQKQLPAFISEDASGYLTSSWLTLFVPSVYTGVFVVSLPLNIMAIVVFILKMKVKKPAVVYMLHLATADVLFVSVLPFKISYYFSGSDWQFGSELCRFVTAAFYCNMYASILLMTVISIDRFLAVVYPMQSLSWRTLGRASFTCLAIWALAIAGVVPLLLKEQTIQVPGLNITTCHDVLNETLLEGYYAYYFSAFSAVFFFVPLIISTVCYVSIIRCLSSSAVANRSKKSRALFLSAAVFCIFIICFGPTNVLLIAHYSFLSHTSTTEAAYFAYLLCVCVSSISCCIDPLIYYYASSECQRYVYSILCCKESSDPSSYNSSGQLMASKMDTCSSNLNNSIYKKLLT"}
{"data": "Sample 1", "target": "DDB1- and CUL4-associated factor 1 (DCAF1, Homo sapiens, UniProt Q9Y4B6)", "method": "SPR", "chain of UniProt Q9Y4B6 (whole entry, looked up)": "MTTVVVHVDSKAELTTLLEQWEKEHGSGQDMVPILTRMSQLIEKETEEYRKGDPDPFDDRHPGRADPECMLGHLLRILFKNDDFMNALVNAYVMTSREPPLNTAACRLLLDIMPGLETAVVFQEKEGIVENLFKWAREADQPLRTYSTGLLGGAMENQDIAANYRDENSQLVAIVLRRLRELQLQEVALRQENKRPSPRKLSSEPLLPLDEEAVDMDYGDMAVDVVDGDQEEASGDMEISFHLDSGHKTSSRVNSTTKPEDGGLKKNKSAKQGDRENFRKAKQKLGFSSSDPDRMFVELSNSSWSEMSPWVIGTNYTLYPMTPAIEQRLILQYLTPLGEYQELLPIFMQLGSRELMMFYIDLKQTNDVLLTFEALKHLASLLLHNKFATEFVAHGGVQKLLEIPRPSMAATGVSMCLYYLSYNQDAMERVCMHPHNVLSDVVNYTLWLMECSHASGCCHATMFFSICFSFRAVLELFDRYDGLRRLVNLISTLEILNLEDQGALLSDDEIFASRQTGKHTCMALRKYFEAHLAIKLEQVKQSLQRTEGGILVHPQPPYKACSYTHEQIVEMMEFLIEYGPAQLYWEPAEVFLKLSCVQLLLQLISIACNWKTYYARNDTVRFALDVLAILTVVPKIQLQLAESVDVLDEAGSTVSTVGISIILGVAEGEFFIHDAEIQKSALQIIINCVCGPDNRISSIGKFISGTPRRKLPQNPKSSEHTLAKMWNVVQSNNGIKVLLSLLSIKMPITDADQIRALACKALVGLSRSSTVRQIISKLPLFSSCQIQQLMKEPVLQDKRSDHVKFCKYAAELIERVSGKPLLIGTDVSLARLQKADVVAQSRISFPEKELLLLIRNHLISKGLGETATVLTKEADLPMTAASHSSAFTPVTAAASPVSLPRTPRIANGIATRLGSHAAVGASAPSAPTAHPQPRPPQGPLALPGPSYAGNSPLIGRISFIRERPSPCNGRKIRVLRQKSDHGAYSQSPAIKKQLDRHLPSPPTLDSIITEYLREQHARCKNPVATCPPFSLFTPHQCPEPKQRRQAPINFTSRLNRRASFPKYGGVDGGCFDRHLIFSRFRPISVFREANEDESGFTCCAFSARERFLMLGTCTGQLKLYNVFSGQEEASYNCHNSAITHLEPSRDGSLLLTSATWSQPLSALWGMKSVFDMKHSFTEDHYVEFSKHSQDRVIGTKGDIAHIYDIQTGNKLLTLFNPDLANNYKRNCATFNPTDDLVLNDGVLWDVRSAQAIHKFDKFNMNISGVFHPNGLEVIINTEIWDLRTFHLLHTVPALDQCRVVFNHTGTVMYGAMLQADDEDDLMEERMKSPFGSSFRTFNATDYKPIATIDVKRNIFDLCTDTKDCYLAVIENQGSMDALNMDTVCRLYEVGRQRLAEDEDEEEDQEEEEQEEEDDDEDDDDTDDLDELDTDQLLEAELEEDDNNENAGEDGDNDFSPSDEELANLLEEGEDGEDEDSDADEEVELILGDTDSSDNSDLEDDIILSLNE"}
{"SMILES": "C[C@@H]1CN(c2ccc(-c3cc(C(=O)NCCOCCOCCOCCOCCOCCOCCNC(=O)/C=C/c4[nH]cc(C(=O)N[C@@H](CC(N)=O)c5ccc(F)c(Cl)c5)c4-c4ccc(Cl)cc4F)ccc3F)cc2NC(=O)c2ccc(F)cc2C(F)(F)F)C[C@H](C)N1C", "dissociation rate constant [s⁻¹]": 0.0123}
{"SMILES": "C[C@@H]1CN(c2ccc(-c3cc(C(=O)NCCCNC(=O)/C=C/c4[nH]cc(C(=O)N[C@@H](CC(N)=O)c5ccc(F)c(Cl)c5)c4-c4ccc(Cl)cc4F)ccc3F)cc2NC(=O)c2c[nH]c(=O)cc2C(F)(F)F)C[C@H](C)N1C", "dissociation rate constant [s⁻¹]": 0.0006}
{"SMILES": "C[C@@H]1CN(c2ccc(-c3cc(C(=O)NCCOCCOCCOCCOCCNC(=O)Cn4cc(-c5[nH]cc(C(=O)N[C@@H](CC(N)=O)c6ccc(F)c(Cl)c6)c5-c5ccc(Cl)cc5F)cn4)ccc3F)cc2NC(=O)c2c[nH]c(=O)cc2C(F)(F)F)C[C@H](C)N1C", "dissociation rate constant [s⁻¹]": 0.0069}
{"data": "Sample 2", "SMILES": "Cc1cc(NC(=O)c2cccc(S(F)(F)(F)(F)F)c2)cc(-n2ccn3nc(-c4cccnc4)cc23)c1", "observed": "ligand displacement", "method": "radioligand", "concentration": "10 µM"}
{"target": "HTR7 (Homo sapiens, UniProt P34969)", "inhibition": "-4.45%"}
{"target": "HRH1 (Homo sapiens, UniProt P35367)", "inhibition": "4.94%"}
{"target": "HTR6 (Homo sapiens, UniProt P50406)", "inhibition": "-8.52%"}
{"target": "ADRB2 (Homo sapiens, UniProt P07550)", "inhibition": "-6.09%"}
{"target": "HTR5A (Homo sapiens, UniProt P47898)", "inhibition": "-8.05%"}
{"target": "HRH3 (Homo sapiens, UniProt Q9Y5N1)", "inhibition": "40.5%"}
{"target": "SIGMAR1 (Homo sapiens, UniProt Q99720)", "inhibition": "24.3%"}
{"target": "ADRA1D (Homo sapiens, UniProt P25100)", "inhibition": "8.58%"}
{"data": "Sample 3", "host": "human", "sample": "microsomes or S9", "concentration": "2 µM", "time": "0.5 h"}
{"Structure (SMILES)": "CCOC(=O)C1(C(=O)OCC)Cc2ccccc2C(C)(c2ccccc2)C1 (stereo not drawn)", "remaining compound [%]": 12.9}
{"Structure (SMILES)": "COc1ccc(F)cc1-n1c(=O)[nH]c2c(c1=O)CCC2", "remaining compound [%]": 80.3}
{"Structure (SMILES)": "Cn1nccc1NC(=O)c1cnc2c(F)cc(F)cc2c1O", "remaining compound [%]": 76.2}
{"Structure (SMILES)": "CCN(C(=O)COC(=O)c1cc2c(C)nn(-c3ccccc3)c2s1)c1cccc2ccccc12", "remaining compound [%]": 9.76}
{"Structure (SMILES)": "CCC(C(=O)Nc1ccc(C(=O)O)cc1NC(=O)C(CC)c1ccccc1)c1ccccc1 (stereo not drawn)", "remaining compound [%]": "> 99"}
{"Structure (SMILES)": "COC(=O)c1cc(F)c(NCCCN(CCCCN(CCCn2c(=O)[nH]c3cc(F)c(F)cc3c2=O)C(=O)OC(C)(C)C)C(=O)OC(C)(C)C)cc1NC(=O)NCCCN(CCCCN(CCCn1c(=O)[nH]c2cc(F)c(F)cc2c1=O)C(=O)OC(C)(C)C)C(=O)OC(C)(C)C", "remaining compound [%]": "> 99.9"}
{"Structure (SMILES)": "c1ccc(C2CCC3(CC2)Oc2ccccc2C2CC(c4ccncc4)=NN23)cc1 (stereo not drawn)", "remaining compound [%]": 56.1}
{"Structure (SMILES)": "CCc1ccc(C2=NN(c3ccc(S(N)(=O)=O)cc3)C(c3ccc(O)cc3)C2)cc1 (stereo not drawn)", "remaining compound [%]": "> 99"}
{"Structure (SMILES)": "CC(C)N(C(=O)CO/C(=C(/c1ccccc1)S(=O)(=O)c1ccccc1)c1ccccc1)c1ccccc1", "remaining compound [%]": 60.7}
{"Structure (SMILES)": "Cc1nc(-c2c[nH]c(C(=O)N3CCOc4cc(F)ccc43)c2)cs1", "remaining compound [%]": 104}
{"Structure (SMILES)": "c1ccc(-n2ncc3c(Nc4cccc5ccccc45)ncnc32)cc1", "remaining compound [%]": 31.2}
{"data": "Sample 4", "SMILES": "CCN(c1nc(N)c(C(=O)N=C(N)N)nc1Cl)C(C)C", "observed": "β-arrestin recruitment", "mode": "agonist", "method": "PRESTO-Tango", "concentration": "10 µM", "reference": "untreated"}
{"target": "Probable G-protein coupled receptor 21 (GPR21, Homo sapiens, UniProt Q99679)", "fold over basal": 1.07}
{"target": "CCR6 (Homo sapiens, UniProt P51684)", "fold over basal": 1.02}
{"target": "HCRTR1 (Homo sapiens, UniProt O43613)", "fold over basal": "0.85 fold"}
{"target": "TACR3 (Homo sapiens, UniProt P29371)", "fold over basal": "1.1 fold"}
{"target": "BDKRB1 (Homo sapiens, UniProt P46663)", "fold over basal": 1.03}
{"target": "ADORA3 (Homo sapiens, UniProt P0DMS8)", "fold over basal": 1.03}
{"target": "F2R (Homo sapiens, UniProt P25116)", "fold over basal": 1.16}
{"target": "CMKLR1 (Homo sapiens, UniProt Q99788)", "fold over basal": 0.87}
{"target": "Adhesion G protein-coupled receptor E5 (Homo sapiens, UniProt P48960)", "fold over basal": 0.49}
{"target": "ADRB3 (Homo sapiens, UniProt P13945)", "fold over basal": 1.1}
{"data": "Sample 5", "SMILES": "CC(=O)O/N=C1/C(c2c(O)[nH]c3cc(Br)ccc23)=Nc2ccccc21", "observed": "enzyme activity", "mode": "inhibitor", "concentration": "0.5 µM", "reference": "control"}
{"target": "PRKCQ (Homo sapiens, UniProt Q04759)", "remaining activity [%]": 72}
{"target": "FLT1 (Homo sapiens, UniProt P17948)", "remaining activity [%]": 98.6}
{"target": "ACVRL1 (Homo sapiens, UniProt P37023)", "remaining activity [%]": 107}
{"target": "DYRK1A (Homo sapiens, UniProt Q13627)", "remaining activity [%]": 111}
{"target": "TEC (Homo sapiens, UniProt P42680)", "remaining activity [%]": 131}
{"target": "PAK4 (Homo sapiens, UniProt O96013)", "remaining activity [%]": 92.7}
{"target": "MARK1 (Homo sapiens, UniProt Q9P0L2)", "remaining activity [%]": 76}
{"target": "TYRO3 (Homo sapiens, UniProt Q06418)", "remaining activity [%]": 69.8}
{"target": "PAK5 (Homo sapiens, UniProt Q9P286)", "remaining activity [%]": 89.1}
{"target": "SGK2 (Homo sapiens, UniProt Q9HBY8)", "remaining activity [%]": 92.8}
{"target": "CLK1 (Homo sapiens, UniProt P49759)", "remaining activity [%]": 83.3}
{"target": "PAK1 (Homo sapiens, UniProt Q13153)", "remaining activity [%]": 93.6}
{"target": "MELK (Homo sapiens, UniProt Q14680)", "remaining activity [%]": 93.9}
{"target": "MAP3K20 (Homo sapiens, UniProt Q9NYL2)", "remaining activity [%]": 77}
{"target": "EPHA2 (Homo sapiens, UniProt P29317)", "remaining activity [%]": 95.8}
{"target": "JAK1 (Homo sapiens, UniProt P23458)", "remaining activity [%]": 104}
{"target": "PRKCZ (Homo sapiens, UniProt Q05513)", "remaining activity [%]": 92.2}
{"target": "PAK6 (Homo sapiens, UniProt Q9NQU5)", "remaining activity [%]": 74.8}
{"target": "FES (Homo sapiens, UniProt P07332)", "remaining activity [%]": 115}
{"target": "JAK2 (Homo sapiens, UniProt O60674)", "remaining activity [%]": 105}
{"target": "PIM1 (Homo sapiens, UniProt P11309)", "remaining activity [%]": 79.8}
{"target": "Cyclin-dependent kinase 5, with p35 (CDK5, Homo sapiens, UniProt Q00535)", "remaining activity [%]": 24.7}
{"note": "Some of these lines once more (sample 1):"}
{"SMILES": "C[C@@H]1CN(c2ccc(-c3cc(C(=O)NCCOCCOCCOCCOCCOCCOCCNC(=O)/C=C/c4[nH]cc(C(=O)N[C@@H](CC(N)=O)c5ccc(F)c(Cl)c5)c4-c4ccc(Cl)cc4F)ccc3F)cc2NC(=O)c2ccc(F)cc2C(F)(F)F)C[C@H](C)N1C", "dissociation rate constant [s⁻¹]": 0.0123}
{"SMILES": "C[C@@H]1CN(c2ccc(-c3cc(C(=O)NCCCNC(=O)/C=C/c4[nH]cc(C(=O)N[C@@H](CC(N)=O)c5ccc(F)c(Cl)c5)c4-c4ccc(Cl)cc4F)ccc3F)cc2NC(=O)c2c[nH]c(=O)cc2C(F)(F)F)C[C@H](C)N1C", "dissociation rate constant [s⁻¹]": 0.0006}
{"SMILES": "C[C@@H]1CN(c2ccc(-c3cc(C(=O)NCCOCCOCCOCCOCCNC(=O)Cn4cc(-c5[nH]cc(C(=O)N[C@@H](CC(N)=O)c6ccc(F)c(Cl)c6)c5-c5ccc(Cl)cc5F)cn4)ccc3F)cc2NC(=O)c2c[nH]c(=O)cc2C(F)(F)F)C[C@H](C)N1C", "dissociation rate constant [s⁻¹]": 0.0069}
